{"data": "Results from different studies", "ESR1": "Estrogen receptor (ESR1, Homo sapiens, UniProt P03372)", "FPR1": "fMet-Leu-Phe receptor (FPR1, Homo sapiens, UniProt P21462)", "C3AR1": "C3a anaphylatoxin chemotactic receptor (C3AR1, Homo sapiens, UniProt Q16581)", "ADORA1": "Adenosine receptor A1 (ADORA1, Homo sapiens, UniProt P30542)", "note": "Lines come from different studies, so protocols differ. Numbers after ± are the reported error.", "UniProt Q16581, sequence (whole entry, looked up)": "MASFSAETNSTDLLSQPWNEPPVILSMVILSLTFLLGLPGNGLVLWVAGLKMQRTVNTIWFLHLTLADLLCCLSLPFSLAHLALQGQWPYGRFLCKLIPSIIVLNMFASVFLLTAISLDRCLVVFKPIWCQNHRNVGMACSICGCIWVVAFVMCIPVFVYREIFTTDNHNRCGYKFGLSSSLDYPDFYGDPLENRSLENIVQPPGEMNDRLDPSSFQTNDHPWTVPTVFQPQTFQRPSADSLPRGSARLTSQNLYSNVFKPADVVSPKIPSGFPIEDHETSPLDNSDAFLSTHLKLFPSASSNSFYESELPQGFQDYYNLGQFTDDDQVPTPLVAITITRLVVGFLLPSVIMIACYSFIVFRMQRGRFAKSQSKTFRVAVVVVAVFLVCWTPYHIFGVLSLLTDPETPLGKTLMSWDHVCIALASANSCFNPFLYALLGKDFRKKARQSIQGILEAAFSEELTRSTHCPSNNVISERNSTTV", "UniProt P30542, sequence (whole entry, looked up)": "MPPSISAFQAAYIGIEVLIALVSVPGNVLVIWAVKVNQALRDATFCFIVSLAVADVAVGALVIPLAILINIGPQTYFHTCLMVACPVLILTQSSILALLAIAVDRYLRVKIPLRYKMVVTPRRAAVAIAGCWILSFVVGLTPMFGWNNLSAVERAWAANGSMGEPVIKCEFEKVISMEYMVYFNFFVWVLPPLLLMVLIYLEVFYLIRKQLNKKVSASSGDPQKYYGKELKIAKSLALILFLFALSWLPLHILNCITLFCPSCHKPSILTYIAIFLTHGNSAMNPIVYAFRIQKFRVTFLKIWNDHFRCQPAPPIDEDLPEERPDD", "UniProt P03372, sequence (whole entry, looked up)": "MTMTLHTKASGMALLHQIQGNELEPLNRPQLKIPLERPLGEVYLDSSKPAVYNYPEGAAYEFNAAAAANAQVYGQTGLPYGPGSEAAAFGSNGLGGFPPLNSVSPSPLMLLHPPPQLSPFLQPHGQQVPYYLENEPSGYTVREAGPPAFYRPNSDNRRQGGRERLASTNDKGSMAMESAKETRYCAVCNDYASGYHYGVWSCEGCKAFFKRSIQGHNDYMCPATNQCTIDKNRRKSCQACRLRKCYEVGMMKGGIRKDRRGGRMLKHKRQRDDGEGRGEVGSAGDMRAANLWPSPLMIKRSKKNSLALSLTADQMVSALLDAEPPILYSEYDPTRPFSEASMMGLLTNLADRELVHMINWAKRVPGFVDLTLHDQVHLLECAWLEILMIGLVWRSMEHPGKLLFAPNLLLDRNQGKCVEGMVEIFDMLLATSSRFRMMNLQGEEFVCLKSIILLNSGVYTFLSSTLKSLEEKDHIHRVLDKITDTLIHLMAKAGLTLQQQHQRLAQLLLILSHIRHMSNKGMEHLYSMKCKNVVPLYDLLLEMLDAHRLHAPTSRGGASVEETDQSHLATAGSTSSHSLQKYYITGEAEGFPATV", "UniProt P21462, sequence (whole entry, looked up)": "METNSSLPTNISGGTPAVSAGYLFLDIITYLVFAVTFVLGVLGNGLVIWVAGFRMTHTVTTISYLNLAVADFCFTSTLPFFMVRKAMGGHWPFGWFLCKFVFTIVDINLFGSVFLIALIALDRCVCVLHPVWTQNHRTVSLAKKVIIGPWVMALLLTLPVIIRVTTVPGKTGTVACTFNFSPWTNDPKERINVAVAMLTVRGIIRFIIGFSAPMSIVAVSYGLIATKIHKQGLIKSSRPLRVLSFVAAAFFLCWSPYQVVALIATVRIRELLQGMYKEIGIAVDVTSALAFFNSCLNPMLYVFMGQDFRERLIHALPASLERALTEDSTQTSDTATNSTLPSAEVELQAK", "UniProt P48039, sequence (whole entry, looked up)": "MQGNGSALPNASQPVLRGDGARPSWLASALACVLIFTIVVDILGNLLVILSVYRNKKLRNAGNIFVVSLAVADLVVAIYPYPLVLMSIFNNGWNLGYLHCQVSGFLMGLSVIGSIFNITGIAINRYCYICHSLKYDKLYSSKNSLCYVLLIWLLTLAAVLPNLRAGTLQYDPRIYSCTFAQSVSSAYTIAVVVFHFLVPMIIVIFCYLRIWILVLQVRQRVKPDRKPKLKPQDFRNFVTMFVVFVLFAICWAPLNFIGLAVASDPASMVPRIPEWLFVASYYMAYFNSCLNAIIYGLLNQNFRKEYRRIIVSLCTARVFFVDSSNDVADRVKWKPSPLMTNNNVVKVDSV", "UniProt P50241, sequence (whole entry, looked up)": "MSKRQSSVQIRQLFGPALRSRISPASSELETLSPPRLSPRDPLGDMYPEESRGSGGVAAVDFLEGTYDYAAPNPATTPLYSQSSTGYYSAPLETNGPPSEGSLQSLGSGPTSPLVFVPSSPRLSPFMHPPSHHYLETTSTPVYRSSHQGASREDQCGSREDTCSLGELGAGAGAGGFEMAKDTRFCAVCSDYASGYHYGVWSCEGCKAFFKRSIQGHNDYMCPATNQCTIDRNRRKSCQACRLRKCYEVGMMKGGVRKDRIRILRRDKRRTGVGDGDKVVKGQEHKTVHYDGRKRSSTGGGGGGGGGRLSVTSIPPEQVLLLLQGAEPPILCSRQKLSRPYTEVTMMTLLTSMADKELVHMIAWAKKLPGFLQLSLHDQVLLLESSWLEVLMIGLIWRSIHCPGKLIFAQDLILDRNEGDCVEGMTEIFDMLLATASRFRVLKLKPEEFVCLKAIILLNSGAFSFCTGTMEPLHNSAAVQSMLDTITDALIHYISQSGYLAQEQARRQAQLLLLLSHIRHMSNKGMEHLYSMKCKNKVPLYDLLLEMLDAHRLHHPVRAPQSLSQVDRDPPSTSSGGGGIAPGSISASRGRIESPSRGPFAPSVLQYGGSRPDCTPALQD", "UniProt P49685, sequence (whole entry, looked up)": "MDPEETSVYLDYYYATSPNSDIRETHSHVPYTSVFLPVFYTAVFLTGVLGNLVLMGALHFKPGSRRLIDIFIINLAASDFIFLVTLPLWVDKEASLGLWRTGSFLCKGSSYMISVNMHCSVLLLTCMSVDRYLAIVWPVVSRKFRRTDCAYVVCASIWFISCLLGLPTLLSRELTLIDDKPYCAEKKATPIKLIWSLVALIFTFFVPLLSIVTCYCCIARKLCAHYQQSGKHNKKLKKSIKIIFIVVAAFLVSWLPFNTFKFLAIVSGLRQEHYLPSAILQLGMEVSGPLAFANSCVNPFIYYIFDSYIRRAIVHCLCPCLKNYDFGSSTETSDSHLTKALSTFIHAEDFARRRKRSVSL", "UniProt O43741, sequence (whole entry, looked up)": "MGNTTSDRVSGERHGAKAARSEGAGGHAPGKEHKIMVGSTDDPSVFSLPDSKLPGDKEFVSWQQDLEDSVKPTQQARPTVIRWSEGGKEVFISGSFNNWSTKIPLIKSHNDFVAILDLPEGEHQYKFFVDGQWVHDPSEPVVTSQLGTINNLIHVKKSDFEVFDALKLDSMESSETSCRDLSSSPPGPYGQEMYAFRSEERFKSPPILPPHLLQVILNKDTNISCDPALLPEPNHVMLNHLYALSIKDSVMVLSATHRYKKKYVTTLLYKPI", "UniProt P04150, sequence (whole entry, looked up)": "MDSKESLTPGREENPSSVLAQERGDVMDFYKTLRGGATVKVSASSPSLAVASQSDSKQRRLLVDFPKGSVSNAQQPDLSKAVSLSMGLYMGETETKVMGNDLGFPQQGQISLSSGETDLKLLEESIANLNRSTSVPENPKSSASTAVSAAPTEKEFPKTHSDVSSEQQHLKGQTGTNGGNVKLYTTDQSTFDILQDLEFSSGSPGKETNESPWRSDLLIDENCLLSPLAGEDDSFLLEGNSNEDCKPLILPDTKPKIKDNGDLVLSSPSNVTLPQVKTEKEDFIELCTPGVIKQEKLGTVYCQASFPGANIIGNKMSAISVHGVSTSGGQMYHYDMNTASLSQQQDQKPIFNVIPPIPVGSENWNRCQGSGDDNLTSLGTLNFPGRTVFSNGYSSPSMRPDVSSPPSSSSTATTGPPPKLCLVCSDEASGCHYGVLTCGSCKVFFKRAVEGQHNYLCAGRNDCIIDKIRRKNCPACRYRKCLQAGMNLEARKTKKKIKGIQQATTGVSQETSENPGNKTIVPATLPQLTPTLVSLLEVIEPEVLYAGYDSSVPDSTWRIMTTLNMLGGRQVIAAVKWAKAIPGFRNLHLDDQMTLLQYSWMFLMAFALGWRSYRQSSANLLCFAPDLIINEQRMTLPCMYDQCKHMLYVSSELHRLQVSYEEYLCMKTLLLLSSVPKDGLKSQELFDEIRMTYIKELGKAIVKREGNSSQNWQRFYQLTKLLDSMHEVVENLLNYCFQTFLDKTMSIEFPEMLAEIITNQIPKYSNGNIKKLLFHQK", "UniProt P19793, sequence (whole entry, looked up)": "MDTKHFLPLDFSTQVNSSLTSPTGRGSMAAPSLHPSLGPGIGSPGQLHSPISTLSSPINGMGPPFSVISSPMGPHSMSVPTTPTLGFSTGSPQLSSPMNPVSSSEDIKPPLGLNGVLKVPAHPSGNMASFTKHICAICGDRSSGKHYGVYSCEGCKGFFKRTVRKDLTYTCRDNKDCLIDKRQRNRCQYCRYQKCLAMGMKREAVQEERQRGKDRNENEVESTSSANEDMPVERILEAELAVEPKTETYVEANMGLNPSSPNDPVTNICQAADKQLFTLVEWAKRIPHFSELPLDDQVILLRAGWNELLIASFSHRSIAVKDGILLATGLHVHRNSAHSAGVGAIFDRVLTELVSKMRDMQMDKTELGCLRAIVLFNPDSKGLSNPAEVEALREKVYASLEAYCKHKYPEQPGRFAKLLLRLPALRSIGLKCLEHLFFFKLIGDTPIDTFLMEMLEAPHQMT", "UniProt P41968, sequence (whole entry, unmodified, looked up)": "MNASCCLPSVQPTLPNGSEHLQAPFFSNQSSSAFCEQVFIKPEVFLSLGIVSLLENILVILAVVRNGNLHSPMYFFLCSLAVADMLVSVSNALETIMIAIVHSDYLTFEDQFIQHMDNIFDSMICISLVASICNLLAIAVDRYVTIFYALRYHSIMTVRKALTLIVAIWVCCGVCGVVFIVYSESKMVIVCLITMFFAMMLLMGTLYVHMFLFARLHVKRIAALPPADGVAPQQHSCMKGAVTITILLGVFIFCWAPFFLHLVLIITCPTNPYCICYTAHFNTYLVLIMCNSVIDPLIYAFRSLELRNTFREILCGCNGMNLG"}
{"Compound": "O=S(=O)(Oc1ccccc1F)C1CC2OC1C(c1ccc(O)cc1)=C2c1ccc(O)cc1 (racemic)", "target": "ESR1", "test": "reporter gene, agonist, luciferase", "EC50 [nM]": 26}
{"Compound": "COc1cccc(Cc2cc(CCC(=O)NCCNc3cccc4c(S(=O)(=O)O)cccc34)nn(CC(=O)Nc3ccc(Br)cc3)c2=O)c1", "target": "FPR1", "test": "calcium mobilization, agonist", "system": "HL-60 transfected with target", "EC50 [nM]": "10 ± 5"}
{"Compound": "CSCC[C@H](NC=O)C(=O)N[C@@H](CC(C)C)C(=O)N[C@@H](Cc1ccccc1)C(=O)N[C@@H](Cc1ccccc1)C(=O)O", "target": "FPR1", "test": "binding, competitor", "system": "U-937", "setting": "4 °C, together with: 5 nM WK(FL)YMVm", "EC50 [nM]": "1 ± 0.6"}
{"Compound": "CC(C)C[C@H](NC(=O)[C@@H](N)[C@@H](C)O)C(=O)N[C@@H](CCC(N)=O)C(=O)N1CCC[C@H]1C(=O)N1CCC[C@H]1C(=O)N[C@@H](C)C(=O)N[C@@H](CO)C(=O)N[C@@H](CO)C(=O)N[C@@H](CCCNC(=N)N)C(=O)N[C@@H](CCCNC(=N)N)C(=O)N[C@@H](CCCNC(=N)N)C(=O)N[C@@H](Cc1c[nH]cn1)C(=O)N[C@@H](Cc1ccccc1)C(=O)N[C@@H](Cc1c[nH]cn1)C(=O)N[C@@H](Cc1c[nH]cn1)C(=O)N[C@@H](C)C(=O)N[C@@H](CC(C)C)C(=O)N1CCC[C@H]1C(=O)N1CCC[C@H]1C(=O)N[C@@H](C)C(=O)N[C@@H](CCCNC(=N)N)C(=O)O", "target": "C3AR1", "test": "G protein activation, agonist, BRET", "EC50 [nM]": 131}
{"Compound": "Cc1ccc(Oc2nc3cc(-c4ccc5c(ccn5C)c4)c(Cl)cc3[nH]2)cc1C(=O)O", "target": "PRKAB2/PRKAA2 (Homo sapiens, UniProt O43741+P54646)", "test": "enzyme activity, activator", "EC50 [nM]": 510}
{"Compound": "CCNC(=O)[C@H]1O[C@@H](n2cnc3c(NCCCCCCCCNC(=O)CCCCCNC(=O)COc4ccc(/C=C/C5=[N+]6C(=Cc7ccc(-c8cccs8)n7[B-]6(F)F)C=C5)cc4)ncnc32)[C@H](O)[C@@H]1O", "target": "ADORA1", "test": "reporter gene, agonist", "EC50 [nM]": "> 10000"}
{"Compound": "O=C1/C(=C\\c2cccc(F)c2)Oc2cc(O)ccc21", "target": "ESR1", "test": "coactivator recruitment, agonist", "EC50 [nM]": 1850}
{"Compound": "CCNC(=O)[C@H]1O[C@@H](n2cnc3c(NCCCCNC(=O)CCCCCCCNS(=O)(=O)c4cccc5c(N(C)C)cccc45)ncnc32)[C@H](O)[C@@H]1O", "target": "ADORA1", "test": "reporter gene, agonist", "EC50 [nM]": "> 1000"}
{"Compound": "CC(C)C[C@H](NC(=O)[C@H](C)NC(=O)[C@H](CO)NC(=O)[C@@H]1CCCN1C(=O)[C@@H]1CCCN1C(=O)[C@H](CCC(N)=O)NC(=O)[C@H](CC(C)C)NC(=O)[C@@H](N)[C@@H](C)O)C(=O)N[C@@H](CCCNC(=N)N)C(=O)N[C@@H](CCCNC(=N)N)C(=O)N[C@@H](CCCNC(=N)N)C(=O)N[C@@H](Cc1c[nH]cn1)C(=O)N[C@@H](Cc1ccc(O)cc1)C(=O)N[C@@H](Cc1c[nH]cn1)C(=O)N[C@@H](Cc1c[nH]cn1)C(=O)N[C@@H](C)C(=O)N[C@@H](CC(C)C)C(=O)N1CCC[C@H]1C(=O)N1CCC[C@H]1C(=O)N[C@@H](CO)C(=O)N[C@@H](CCCNC(=N)N)C(=O)O", "target": "C3AR1", "test": "β-arrestin recruitment, agonist", "EC50 [nM]": 16900}
{"Compound": "CC/C(=C(\\c1ccccc1)c1ccc(OCCN(C)CCCCC(=O)NCCc2c[nH]c3ccc(OC)cc23)cc1)c1ccccc1", "target": "MTNR1A (Homo sapiens, UniProt P48039)", "test": "phosphorylation in cells, agonist, AlphaScreen", "EC50 [nM]": 253}
{"Compound": "C=CCc1cccc(-c2cc(/C=C/C(=O)O)ccc2O)c1", "target": "RXRA (Homo sapiens, UniProt P19793)", "test": "reporter gene, agonist, luciferase", "EC50 [nM]": 6.3}
{"Compound": "CC(=O)C1=C(C)NC(SCC(=O)c2ccccc2)=C(C#N)C1c1sccc1C (stereo not shown)", "target": "NR3C1 (Homo sapiens, UniProt P04150)", "test": "binding, competitor, TR-FRET", "EC50 [nM]": "530 ± 50"}
{"Compound": "O=C1NC(=O)C(c2ccccc2)(c2ccccc2)N1", "target": "Estrogen receptor (esr1, Oryzias latipes, UniProt P50241)", "test": "receptor activation, agonist", "EC50 [nM]": "> 100000"}
{"Compound": "CC(C)C[C@H](NC(=O)CNC(=O)[C@H](CC(C)C)NC(=O)[C@H](CCCCN)NC(=O)[C@H](CO)NC(=O)[C@H](C)NC(=O)[C@H](CCCN=C(N)N)NC(=O)[C@H](Cc1ccc(O)cc1)NC(=O)[C@H](CCCCN)NC(=O)[C@H](CCCCN)NC(=O)CNC(=O)[C@H](Cc1c[nH]c2ccccc12)NC(=O)[C@@H](N)Cc1c[nH]c2ccccc12)C(=O)N[C@@H](C)C(=O)N[C@@H](CCCN=C(N)N)C(=O)O", "target": "C3AR1", "test": "cAMP, agonist, luciferase", "EC50 [nM]": "~90"}
{"Compound": "CCCC[C@H](NC(=O)[C@H](CO)NC(=O)[C@H](Cc1ccc(O)cc1)NC(=O)[C@H](CO)NC(C)=O)C(=O)N[C@@H](CCC(=O)O)C(=O)N[C@@H](Cc1c[nH]cn1)C(=O)N[C@H](Cc1ccccc1)C(=O)N[C@@H](CCCNC(=N)N)C(=O)N[C@@H](Cc1c[nH]c2ccccc12)C(=O)NCC(=O)N[C@@H](CCCCN)C(=O)N1CCC[C@H]1C(=O)N[C@H](C(=O)NCC(=O)N[C@@H](CCCCN)C(=O)N[C@@H](CCCCN)C(=O)N[C@@H](CCCNC(=N)N)C(N)=O)C(C)C", "target": "MC3R (Homo sapiens, UniProt P41968, L128M)", "test": "cAMP production, agonist", "setting": "mutant receptor", "EC50 [nM]": "3.7 ± 0.1"}
{"Compound": "CC(C)C[C@@H]1NC(=O)[C@H](CCCNC(=N)N)NC(=O)[C@H](C(C)C)NC(=O)[C@H](Cc2c[nH]cn2)NC(=O)[C@H](Cc2c[nH]cn2)NC(=O)CNC(=O)[C@H](CCCCN)NC(=O)[C@H](CC(C)C)NC(=O)[C@H](CC(N)=O)NC(=O)[C@H]([C@@H](C)O)NC(=O)[C@H](CO)NC(=O)[C@H](CC(N)=O)NC(=O)[C@@H]2CCCN2C(=O)[C@H](CO)NC(=O)[C@@H]2CCCN2C(=O)[C@H](C(C)C)NC(=O)[C@H](CCCNC(=N)N)NC(=O)[C@H](Cc2c[nH]cn2)NC(=O)[C@@H]2CSSC[C@H](NC1=O)C(=O)N[C@@H](CCCCN)C(=O)N1CCC[C@H]1C(=O)N[C@H](C(=O)N[C@@H](CCCCN)C(=O)N[C@@H](CC(C)C)C(=O)N[C@@H](CCC(=O)O)C(=O)N1CCC[C@H]1C(=O)N[C@@H](CCC(=O)O)C(=O)N1CCC[C@H]1C(=O)N[C@@H](CCCNC(=N)N)C(=O)N[C@@H](CC(C)C)C(=O)N[C@@H](Cc1c[nH]c3ccccc13)C(=O)N[C@H](C(=O)N[C@H](C(=O)N1CCC[C@H]1C(=O)NCC(=O)N[C@@H](C)C(=O)N[C@@H](CC(C)C)C(=O)N1CCC[C@H]1C(=O)N[C@@H](CCC(N)=O)C(=O)N[C@H](C(=O)O)C(C)C)C(C)C)C(C)C)CSSC[C@H](NC(=O)[C@H](CC(C)C)NC(=O)[C@H](CCCNC(=N)N)NC(=O)[C@@H](NC(=O)[C@H](CCCNC(=N)N)NC(=O)[C@H](CCCNC(=N)N)NC(=O)CNC(=O)[C@H](CO)NC(=O)[C@H](Cc1c[nH]c3ccccc13)NC(=O)[C@H](C)NC(=O)[C@H](CCCCN)NC(=O)[C@H](C)NC(=O)[C@@H]1CCCN1C(=O)[C@H](CCCNC(=N)N)NC(=O)[C@H](CCCNC(=N)N)NC(=O)[C@@H](N)CCCCN)[C@@H](C)O)C(=O)N2", "target": "G-protein coupled receptor 15, with GoB (Homo sapiens, UniProt P49685)", "test": "GoB activation, agonist, BRET", "system": "HEK293A transfected GPR15", "EC50 [nM]": 28.8}
{"note": "Repeated from above:"}
{"Compound": "CSCC[C@H](NC=O)C(=O)N[C@@H](CC(C)C)C(=O)N[C@@H](Cc1ccccc1)C(=O)N[C@@H](Cc1ccccc1)C(=O)O", "target": "FPR1", "test": "binding, competitor", "system": "U-937", "setting": "4 °C, together with: 5 nM WK(FL)YMVm", "EC50 [nM]": "1 ± 0.6"}
